Measured values collected from several papers.
Every numbered part comes from another study and shows a few of its results, in no order. Positions count from the first letter of the parent shown.

Set 1
Target: CCNA1, cyclin fold, Cln2 fusion (human)
Method: yeast growth competition, sequencing
Matrix: yeast
Setting: weak parent motif
Baseline: not given
Reading: higher = stronger binding
Parent: WEE2 docking peptide (human); KELRQKLNFSYCE
Change | normalised enrichment score
L3A | -0.177
K6A | 0.207
L7A | -0.112
Y11A | 0.0766
F9A | 0.109
E2A | -0.17
N8A | 0.324

Set 2
Target: ABI1, truncated, D143A, DHFR fusion (Arabidopsis thaliana)
Method: DHFR PCA, deep sequencing
Matrix: yeast
Setting: methotrexate growth selection, single substitutions
Together with: (+)-ABA 4.8 µM
Baseline: wild-type fitted maximum
Reading: higher = stronger binding
Parent: PYL1, truncated, DHFR fusion (Arabidopsis thaliana); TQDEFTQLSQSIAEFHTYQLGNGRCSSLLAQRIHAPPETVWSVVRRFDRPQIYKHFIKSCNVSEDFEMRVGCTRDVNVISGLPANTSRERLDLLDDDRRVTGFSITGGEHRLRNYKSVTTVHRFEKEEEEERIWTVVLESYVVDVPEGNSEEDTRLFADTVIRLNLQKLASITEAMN
Change | relative binding score
T135P | 1.4%
R155N | 20.1%
E109I | 40.3%
N77R | 84.4%
T135H | 2.79%
S87N | 16.9%
V118A | 16.1%
S104C | 12.9%
A35N | -8.92%
F15V | 2.23%
S150F | -2.12%
R74M | 9.35%
P83V | -13.4%
G102Q | 4.72%
G107Q | 13.6%

Set 3
Target: Phosphate system positive regulatory protein PHO4, full length, GST-tagged (PHO4, Saccharomyces cerevisiae, UniProt P07270, residues 1-312)
Method: competition protein-binding microarray
Form: double-stranded DNA, one strand shown
Matrix: in vitro
Concentration: 2 µM
Setting: whole 60-bp probe, lowest competitor level
Together with: Cbf1 competitor, 0.05 µM
Reading: higher = stronger binding
All sequences stand within: … GTCTTGATTCGCTTGACGCTGCTG
Residues (chain): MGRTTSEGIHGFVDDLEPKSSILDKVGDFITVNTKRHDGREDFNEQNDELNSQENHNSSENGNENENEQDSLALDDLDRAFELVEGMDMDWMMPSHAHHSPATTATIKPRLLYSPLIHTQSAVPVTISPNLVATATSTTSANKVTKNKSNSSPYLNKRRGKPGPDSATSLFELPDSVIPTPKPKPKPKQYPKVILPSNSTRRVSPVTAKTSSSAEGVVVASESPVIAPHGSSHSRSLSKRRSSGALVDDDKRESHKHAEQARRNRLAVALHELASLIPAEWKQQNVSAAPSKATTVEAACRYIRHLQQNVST
Strand | fluorescence intensity [a.u.]
AACTATGCTATAAAAAACGTGACTCGGGTTCTCAGT | 12800
AAGATATTGTTCGACCATGTGTTAAATGCCAGTAAT | 9790
CTTTCCCGATCTTGTATAGTGGGTGTAGCACATTTG | 5420
TCATTGTTACAGCCGCCCGTGGCCGTGTTCCACGGA | 9100
GCAAGTCGACACAGCAACGTGTGGATAATGGATGAG | 11500
ACCGTAAAATGGCCTCACGTGGAACGCTCCCGTCTA | 14100
GTCTTATCTTTAGTGTGCGTGCAAACTGACTCATCG | 8410
AAAGCGGTAATTTGAGTTGTGGGTGCAGATATCTAT | 4530
AACAGTGATATTCGTCACGTGACTCGGATAAAACTC | 15300
TTTCATCACTATTTGCACGCTCTTTCCAAAGCTCCT | 7700
AGCCCGGCCGCTCACCACGTGCTCTCTGTTGTTGCT | 18000
AGGGTCTAGTCTATCAGCCTCCGAAGGAGTTGTATA | 2490
CGGAAGCGCTCACTTCACGTGCTTTAAAAGCTTCTC | 14600
CTAACGAAGGTTTGTCCCGTGGGTGACAAGCCAAGT | 7390
CATACCCAACCTTTTCACGTGCGGTAAGATATTTGT | 14200
ATAGCAAAGAACCGTCACAGATTCATTATTGACCTT | 3120
CCAAGGAAGATGACGTTCGTGATGGCGTCATCAGAA | 3960
ATCCTCTAACGCTTCTACCACCGTCTCTTCTACGAT | 4060
CATACCCAACCTTGCCACGTGGGTGAAGATATTTGT | 18000
AATTTAACGTCGTATCACCTGCCATAACCGAGCAAG | 4770
CAATTGGGTATGAATCACACGCAATCAGCCCAATCA | 4420
CTTTGTCGTCCCTGGCACGGCTGTCTTGTGCTCAGT | 6630
ATCTGGAAACTCCGACGCGTGAGGCCTCGCGTCGCT | 6030
AGGATAATGTATTGTCATGCTGACGTATCCCATTCT | 5680
AGAGAGGCTTTGAAACATGTGATTGCTGTTCGCGAT | 9410

Set 4
Target: Histone acetyltransferase KAT6A, winged helix 2, GST fusion (KAT6A, Homo sapiens, UniProt Q92794, residues 85-181)
Method: protein binding microarray
Form: double-stranded DNA, one strand shown
Matrix: in vitro
Concentration: not given
Setting: 8-mer, flanks averaged, mean of 2 arrays, mostly near background
Baseline: not given
Reading: higher = stronger binding
Residues (chain): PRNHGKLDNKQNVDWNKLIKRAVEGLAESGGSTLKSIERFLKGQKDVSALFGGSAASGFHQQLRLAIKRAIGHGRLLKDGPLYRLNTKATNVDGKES
Strand | E-score
CATATTAA | 0.122
CACCCCTG | -0.11
ATTCACGG | 0.0508
GACGTAGA | -0.162
AGCGGGTG | 0.114
GTCCCGGA | 0.104
AAATTGTC | -0.126
GACATGAC | -0.112
CAGTTGCC | 0.0813
ATACCAGC | -0.125
GGCCGAAC | 0.124
CCGGGTAC | 0.166
AATTAAAA | -0.0121
GTTCAGCA | -0.00061
AATAGAGA | -0.0232
ATTCATAC | 0.0623
GCACTAGA | -0.128
CGCATGTA | -0.123
AAATGTTG | -0.171
CAACGGCA | 0.046
AAAGATAC | 0.0448
GTAATAAC | -0.243
CGCAGTAG | 0.0676
GGGGATAA | -0.196
AATGAAGT | -0.0535

Set 5
Target: UBE2C UBC core domain (UniProt O00762)
Method: yeast two-hybrid
Matrix: yeast
Setting: mostly zero background
Baseline: not given
Reading: higher = stronger interaction
B1: RNF38 RING domain (UniProt Q9H0F5); chain PNNHQSEQTLCVVCMCDFESRQLLRVLPCNHEFHAKCVDKWLKANRTCPICRADASEVHRDS
B2: TRAF5 RING domain (UniProt O00463); chain FVERLEERYKCAFCHSVLHNPHQTGCGHRFCQHCILSLRELNTVPICPVDKEVIKSQEVFK
B3: RNF208 RING domain (UniProt Q9H0X6); chain SSAAAGEPLECPTCGHSYNVTQRRPRVLSCLHSVCEQCLQILYESCPKYKFISCPTCRRETVLFTDYG
B4: TRIML1 RING domain (UniProt Q8N9V2); chain LMENLREELTCFICLDYFSSPVTTECGHSFCLVCLLRSWEEHNTPLSCPECWRTLEGPHFQS
B5: MKRN1 RING domain (UniProt Q9UHC7); chain FAVQRSKDMVCGICMEVVYEKANPSERRFGILSNCNHTYCLKCIRKWRSAKQFESKIIKSCPECRITSNFVIPSE
B6: TRIM5 RING domain (UniProt Q9C035); chain LREVKLSPEGQKVDHCARHGEKLLLFCQEDGKVICWLCERSQEHRGHHTFLTEEVAREYQVKL
B7: TRIM43 RING domain (UniProt Q96BQ3); chain FSHAFQKELTCVICLNYLVDPVTICCGHSFCRPCLCLSWEEAQSPANCPACREPSPKMDFKT
B8: TRIM5 RING domain (UniProt Q9C035); chain ILVNVKEEVTCPICLELLTQPLSLDCGHSFCQACLTANHKKSMLDKGESSCPVCRISYQPENIRP
B9: SH3RF2 RING domain (UniProt Q8TEC5); chain DDLTLLDLLECPVCFEKLDVTAKVLPCQHTFCKPCLQRVFKAHKELRCPECRTPVFSNIEAL
B10: TRIM40 RING domain (UniProt Q6P9F5); chain LQKDNQEEGVCPICQESLKEAVSTNCGHLFCRVCLTQHVEKASASGVFCCPLCRKPCSEEVLG
B11: TRIM24 RING domain (UniProt O15164); chain EAARLNLLDTCAVCHQNIQSRAPKLLPCLHSFCQRCLPAPQRYLMLPAPMLGSAETPPPVPAPGSPVSGSSPFATQVGVIRCPVCSQECAERHII
B12: VPS41 RING domain (UniProt P49754); chain KGVLVDEENICESCLSPILPSDAAKPFSVVVFHCRHMFHKECLPMPSMNSAAQFCNICSAKNRGPGSAI
Construct (chain): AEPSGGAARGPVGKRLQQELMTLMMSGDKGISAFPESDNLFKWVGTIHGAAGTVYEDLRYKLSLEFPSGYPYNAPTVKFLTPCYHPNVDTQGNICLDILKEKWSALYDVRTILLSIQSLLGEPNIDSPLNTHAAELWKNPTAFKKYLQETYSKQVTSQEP
Molecule | lacZ reporter activity
B1 (RNF38 RING domain) | 0
MPIRALCTICSDFFDHSRDVAAIHCGHTFHLQCLIQWFETAPSRTCPQCRIQVGKRTIIN (TRAIP RING domain (UniProt Q9BWF2)) | 0
B2 (TRAF5 RING domain) | 0
B3 (RNF208 RING domain) | 0
DHGAVGQEMCCPICCSEYVKGEVATELPCHHYFHKPCVSIWLQKSGTCPVCRCMFPPPL (PJA1 RING domain (UniProt Q8NG27)) | 0
B4 (TRIML1 RING domain) | 0
B5 (MKRN1 RING domain) | 0
B6 (TRIM5 RING domain) | 0
B7 (TRIM43 RING domain) | 0
B8 (TRIM5 RING domain) | 0
VEPSEENSKDCVVCQNGTVNWVLLPCRHTCLCDGCVKYFQQCPMCRQFVQESFALC (CGRRF1 RING domain (UniProt Q99675)) | 0
B9 (SH3RF2 RING domain) | 0
ASLPTSEEDLCPICYAHPISAVFQPCGHKSCKACINQHLMNNKDCFFCKTTIVSVEDWE (RNF123 RING domain (UniProt Q5XPI4)) | 0
B10 (TRIM40 RING domain) | 0
B11 (TRIM24 RING domain) | 0
B12 (VPS41 RING domain) | 0

Some of these lines once more (set 1):
Change | normalised enrichment score
E2A | -0.17
Y11A | 0.0766
L7A | -0.112
L3A | -0.177
N8A | 0.324
